{"data": "Published values from different studies", "RGS4 residues 19-end": "RGS4 residues 19-end 19-205, Alexa Fluor 568 label (Rattus norvegicus, UniProt P49799)", "RGS4 residues 52-end": "RGS4 residues 52-end 52-205, Alexa Fluor 532 label (Homo sapiens, UniProt P49798)", "B1": "SMAD4 273-552 (Homo sapiens, UniProt Q13485); sequence looked up; chain TAPYTPNLPHHQNGHLQHHPPMPPHPGHYWPVHNELAFQPPISNHPAPEYWCSIAYFEMDVQVGETFKVPSSCPIVTVDGYVDPSGGDRFCLGQLSNVHRTEAIERARLHIGKGVQLECKGEGDVWVRCLSDHAVFVQSYYLDREAGRAPGDAVHKIYPSAYIKVFDLRQCHRQMQQQAATAQAAAAAQAAAVAGNIPGPGSVGGIAPAISLSAAAGIGVDDLRRLCILRMSFVKGWGPDYPRQSIKETPCWIEIHLHRALQLLDEVLHTMPIADPQPLD", "B2": "VPS21 (Saccharomyces cerevisiae, UniProt P36017); chain MNTSVTSIKLVLLGEAAVGKSSIVLRFVSNDFAENKEPTIGAAFLTQRVTINEHTVKFEIWDTAGQERFASLAPMYYRNAQAALVVYDVTKPQSFIKARHWVKELHEQASKDIIIALVGNKIDMLQEGGERKVAREEGEKLAEEKGLLFFETSAKTGENVNDVFLGIGEKIPLKTAEEQNSASNERESNNQRVDLNAANDGTSANSACSC", "B3": "pum 1091-1426 (Drosophila melanogaster, UniProt P25822-1); chain GRSRLLEDFRNQRYPNLQLRDLANHIVEFSQDQHGSRFIQQKLERATAAEKQMVFSEILAAAYSLMTDVFGNYVIQKFFEFGTPEQKNTLGMQVKGHVLQLALQMYGCRVIQKALESISPEQQQEIVHELDGHVLKCVKDQNGNHVVQKCIECVDPVALQFIINAFKGQVYSLSTHPYGCRVIQRILEHCTAEQTTPILDELHEHTEQLIQDQYGNYVIQHVLEHGKQEDKSILINSVRGKVLVLSQHKFASNVVEKCVTHATRGERTGLIDEVCTFNDNALHVMMKDQYANYVVQKMIDVSEPTQLKKLMTKIRPHMAALRKYTYGKHINAKLEK", "B4": "SEC72 (Saccharomyces cerevisiae, UniProt P39742); lysines PEGylated; sequence looked up; chain MVTLEYNANSKLITASDAVVALSTETNIDQINVLTTSLIGETNPNFTPQPNEALSKMIKGLFESGMKNLQQKKLNEALKNVSLAIEMAQRKRAPWEAFAIQLPELHFMLRSKIDLCLILGKHLEALQDLDFLLGTGLIQPDVFVRKADCLLKLRQWEEARATCERGLALAPEDMKLRALLIETARNLAEYNGE", "B5": "NAS6 1-228 (Saccharomyces cerevisiae, UniProt P50086); chain MSNYPLHQACMENEFFKVQELLHSKPSLLLQKDQDGRIPLHWSVSFQAHEITSFLLSKMENVNLDDYPDDSGWTPFHIACSVGNLEVVKSLYDRPLKPDLNKITNQGVTCLHLAVGKKWFEVSQFLIENGASVRIKDKFNQIPLHRAASVGSLKLIELLCGLGKSAVNWQDKQGWTPLFHALAEGHGDAAVLLVEKYGAEYDLVDNKGAKAEDVALNEQVKKFFLNNV", "B6": "UGT1A9 (Homo sapiens, UniProt O60656); chain GKLLVVPMDGSHWFTMRSVVEKLILRGHEVVVVMPEVSWQLGRSLNCTVKTYSTSYTLEDLDREFKAFAHAQWKAQVRSIYSLLMGSYNDIFDLFFSNCRSLFKDKKLVEYLKESSFDAVFLDPFDNCGLIVAKYFSLPSVVFARGILCHYLEEGAQCPAPLSYVPRILLGFSDAMTFKERVRNHIMHLEEHLLCHRFFKNALEIASEILQTPVTEYDLYSHTSIWLLRTDFVLDYPKPVMPNMIFIGGINCHQGKPLPMEFEAYINASGEHGIVVFSLGSMVSEIPEKKAMAIADALGKIPQTVLWRYTGTRPSNLANNTILVKWLPQNDLLGHPMTRAFITHAGSHGVYESICNGVPMVMMPLFGDQMDNAKRMETKGAGVTLNVLEMTSEDLENALKAVINDKSYKENIMRLSSLHKDRPVEPLDLAVFWVEFVMRHKGAPHLRPAAHDLTWYQYHSLDVIGFLLAVVLTVAFITFKCCAYGYRKCLGKKGRVKKAHKSKTH", "B7": "LSAMP ectodomain 32-306 (Homo sapiens, UniProt Q13449); chain VDFNRGTDNITVRQGDTAILRCVVEDKNSKVAWLNRSGIIFAGHDKWSLDPRVELEKRHSLEYSLRIQKVDVYDEGSYTCSVQTQHEPKTSQVYLIVQVPPKISNISSDVTVNEGSNVTLVCMANGRPEPVITWRHLTPTGREFEGEEEYLEILGITREQSGKYECKAANEVSSADVKQVKVTVNYPPTITESKSNEATTGRQASLKCEASAVPAPDFEWYRDDTRINSANGLEIKSTEGQSSLTVTNVTEEHYGNYTCVAANKLGVTNASLVLF", "B8": "apcB (Synechocystis sp. PCC 6803, UniProt Q01952); bilin at Cys81; sequence looked up; chain MQDAITAVINSADVQGKYLDGAAMDKLKSYFASGELRVRAASVISANAATIVKEAVAKSLLYSDVTRPGGNMYTTRRYAACIRDLDYYLRYATYAMLAGDASILDERVLNGLKETYNSLGVPISSTVQAIQAIKEVTASLVGADAGKEMGVYLDYICSGLS", "B9": "POL30 (Saccharomyces cerevisiae, UniProt P15873); LD655 label on S6 tag; sequence looked up; chain MLEAKFEEASLFKRIIDGFKDCVQLVNFQCKEDGIIAQAVDDSRVLLVSLEIGVEAFQEYRCDHPVTLGMDLTSLSKILRCGNNTDTLTLIADNTPDSIILLFEDTKKDRIAEYSLKLMDIDADFLKIEELQYDSTLSLPSSEFSKIVRDLSQLSDSINIMITKETIKFVADGDIGSGSVIIKPFVDMEHPETSIKLEMDQPVDLTFGAKYLLDIIKGSSLSDRVGIRLSSEAPALFQFDLKSGFLQFFLAPKFNDEE", "note": "Lines come from different studies, so protocols differ. Positions of bridges follow the written chain, without caps; N, C: chain ends. No end group written: not given here.", "UniProt P49798, sequence (whole entry, unmodified, looked up)": "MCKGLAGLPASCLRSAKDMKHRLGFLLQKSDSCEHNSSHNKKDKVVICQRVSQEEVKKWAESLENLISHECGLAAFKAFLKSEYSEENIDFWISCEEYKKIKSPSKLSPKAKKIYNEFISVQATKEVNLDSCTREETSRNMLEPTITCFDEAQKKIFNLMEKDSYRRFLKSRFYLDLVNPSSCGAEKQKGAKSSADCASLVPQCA", "UniProt P49799, sequence (whole entry, unmodified, looked up)": "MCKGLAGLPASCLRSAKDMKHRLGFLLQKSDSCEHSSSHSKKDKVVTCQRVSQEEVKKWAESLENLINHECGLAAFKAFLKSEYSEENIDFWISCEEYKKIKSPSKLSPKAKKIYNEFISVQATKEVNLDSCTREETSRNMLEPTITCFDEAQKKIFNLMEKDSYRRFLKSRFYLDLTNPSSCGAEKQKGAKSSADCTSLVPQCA", "UniProt P14906, sequence (whole entry, looked up)": "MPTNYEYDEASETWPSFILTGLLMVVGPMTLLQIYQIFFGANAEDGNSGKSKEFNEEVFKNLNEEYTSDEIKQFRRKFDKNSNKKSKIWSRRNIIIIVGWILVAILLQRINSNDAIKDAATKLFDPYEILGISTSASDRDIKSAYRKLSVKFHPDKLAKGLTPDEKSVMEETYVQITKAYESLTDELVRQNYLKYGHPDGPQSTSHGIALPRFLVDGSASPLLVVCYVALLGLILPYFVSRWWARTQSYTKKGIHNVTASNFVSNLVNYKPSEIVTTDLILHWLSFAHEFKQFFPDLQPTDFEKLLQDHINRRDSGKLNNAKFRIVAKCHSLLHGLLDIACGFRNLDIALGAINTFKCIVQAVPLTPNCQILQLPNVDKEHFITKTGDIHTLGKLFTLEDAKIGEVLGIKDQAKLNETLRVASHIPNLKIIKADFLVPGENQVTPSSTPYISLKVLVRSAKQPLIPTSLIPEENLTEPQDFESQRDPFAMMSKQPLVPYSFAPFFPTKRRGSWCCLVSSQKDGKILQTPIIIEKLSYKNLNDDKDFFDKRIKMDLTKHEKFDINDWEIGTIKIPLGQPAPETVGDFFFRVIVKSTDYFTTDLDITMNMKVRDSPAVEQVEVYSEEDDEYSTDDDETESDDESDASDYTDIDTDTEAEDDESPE", "UniProt P40013, sequence (whole entry, looked up)": "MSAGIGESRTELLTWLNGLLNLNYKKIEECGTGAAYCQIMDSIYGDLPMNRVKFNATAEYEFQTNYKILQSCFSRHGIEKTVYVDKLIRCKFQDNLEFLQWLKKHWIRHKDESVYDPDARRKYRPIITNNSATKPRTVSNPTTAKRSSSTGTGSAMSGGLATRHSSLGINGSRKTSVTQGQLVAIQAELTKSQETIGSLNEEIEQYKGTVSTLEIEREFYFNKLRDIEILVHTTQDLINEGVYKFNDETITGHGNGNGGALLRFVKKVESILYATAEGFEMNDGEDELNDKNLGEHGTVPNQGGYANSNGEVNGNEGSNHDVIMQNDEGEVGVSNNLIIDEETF", "UniProt Q7Z3B1, sequence (whole entry, looked up)": "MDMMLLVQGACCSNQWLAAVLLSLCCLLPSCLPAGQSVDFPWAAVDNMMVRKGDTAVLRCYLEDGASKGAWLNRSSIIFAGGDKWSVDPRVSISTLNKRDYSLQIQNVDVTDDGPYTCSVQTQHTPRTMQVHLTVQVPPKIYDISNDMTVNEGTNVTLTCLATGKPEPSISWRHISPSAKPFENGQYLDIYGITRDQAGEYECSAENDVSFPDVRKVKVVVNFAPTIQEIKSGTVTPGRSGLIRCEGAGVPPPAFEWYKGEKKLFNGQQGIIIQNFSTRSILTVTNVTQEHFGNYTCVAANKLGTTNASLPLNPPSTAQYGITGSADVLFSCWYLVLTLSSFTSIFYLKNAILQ", "UniProt Q15796, sequence (whole entry, looked up)": "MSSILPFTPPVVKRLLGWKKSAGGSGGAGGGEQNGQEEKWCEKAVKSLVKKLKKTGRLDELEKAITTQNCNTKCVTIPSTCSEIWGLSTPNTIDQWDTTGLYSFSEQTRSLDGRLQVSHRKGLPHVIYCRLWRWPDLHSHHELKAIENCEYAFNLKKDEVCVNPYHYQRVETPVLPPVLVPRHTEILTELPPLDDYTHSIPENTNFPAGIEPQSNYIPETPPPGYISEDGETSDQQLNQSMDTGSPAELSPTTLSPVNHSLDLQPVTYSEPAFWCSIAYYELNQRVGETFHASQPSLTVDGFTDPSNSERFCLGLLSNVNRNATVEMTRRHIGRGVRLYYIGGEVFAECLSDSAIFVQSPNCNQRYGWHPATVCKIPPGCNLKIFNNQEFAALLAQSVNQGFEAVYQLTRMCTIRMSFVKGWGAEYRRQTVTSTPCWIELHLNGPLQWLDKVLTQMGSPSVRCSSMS", "UniProt P73354, sequence (whole entry, unmodified, looked up)": "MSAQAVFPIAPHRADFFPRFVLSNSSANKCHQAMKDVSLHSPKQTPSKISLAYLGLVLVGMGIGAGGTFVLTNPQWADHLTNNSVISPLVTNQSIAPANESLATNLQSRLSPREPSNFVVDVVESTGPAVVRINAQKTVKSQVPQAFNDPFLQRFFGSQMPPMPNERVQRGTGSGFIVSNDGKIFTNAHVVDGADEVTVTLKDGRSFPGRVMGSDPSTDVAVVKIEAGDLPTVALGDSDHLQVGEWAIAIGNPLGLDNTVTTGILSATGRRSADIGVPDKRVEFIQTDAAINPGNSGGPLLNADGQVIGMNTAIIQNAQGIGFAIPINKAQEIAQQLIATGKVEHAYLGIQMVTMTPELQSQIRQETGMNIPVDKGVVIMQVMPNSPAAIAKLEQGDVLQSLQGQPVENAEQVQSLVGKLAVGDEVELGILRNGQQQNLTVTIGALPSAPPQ", "UniProt Q55544, sequence (whole entry, looked up)": "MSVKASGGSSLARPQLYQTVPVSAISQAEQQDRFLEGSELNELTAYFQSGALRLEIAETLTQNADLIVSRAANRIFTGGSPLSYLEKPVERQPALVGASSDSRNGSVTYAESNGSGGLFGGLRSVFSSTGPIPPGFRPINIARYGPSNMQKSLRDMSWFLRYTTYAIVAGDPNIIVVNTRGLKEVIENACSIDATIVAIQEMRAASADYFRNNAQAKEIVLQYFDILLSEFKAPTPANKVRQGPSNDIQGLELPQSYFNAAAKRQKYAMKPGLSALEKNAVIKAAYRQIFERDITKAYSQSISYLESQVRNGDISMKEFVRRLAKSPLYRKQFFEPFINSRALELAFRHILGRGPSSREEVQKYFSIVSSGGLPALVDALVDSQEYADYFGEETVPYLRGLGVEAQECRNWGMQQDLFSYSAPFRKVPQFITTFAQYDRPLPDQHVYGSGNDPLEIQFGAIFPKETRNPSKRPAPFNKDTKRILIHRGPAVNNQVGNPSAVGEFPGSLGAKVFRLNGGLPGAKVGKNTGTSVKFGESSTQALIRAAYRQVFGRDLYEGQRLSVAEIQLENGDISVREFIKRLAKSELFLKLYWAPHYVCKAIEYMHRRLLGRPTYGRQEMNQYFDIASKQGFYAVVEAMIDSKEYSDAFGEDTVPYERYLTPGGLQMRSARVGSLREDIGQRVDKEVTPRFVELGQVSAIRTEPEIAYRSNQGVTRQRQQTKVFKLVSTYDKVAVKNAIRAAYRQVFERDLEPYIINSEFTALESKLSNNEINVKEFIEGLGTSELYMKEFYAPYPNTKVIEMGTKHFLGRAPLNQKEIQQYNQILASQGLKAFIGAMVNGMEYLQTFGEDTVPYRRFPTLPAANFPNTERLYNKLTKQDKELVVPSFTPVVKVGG", "UniProt P32526, sequence (whole entry, unmodified, looked up)": "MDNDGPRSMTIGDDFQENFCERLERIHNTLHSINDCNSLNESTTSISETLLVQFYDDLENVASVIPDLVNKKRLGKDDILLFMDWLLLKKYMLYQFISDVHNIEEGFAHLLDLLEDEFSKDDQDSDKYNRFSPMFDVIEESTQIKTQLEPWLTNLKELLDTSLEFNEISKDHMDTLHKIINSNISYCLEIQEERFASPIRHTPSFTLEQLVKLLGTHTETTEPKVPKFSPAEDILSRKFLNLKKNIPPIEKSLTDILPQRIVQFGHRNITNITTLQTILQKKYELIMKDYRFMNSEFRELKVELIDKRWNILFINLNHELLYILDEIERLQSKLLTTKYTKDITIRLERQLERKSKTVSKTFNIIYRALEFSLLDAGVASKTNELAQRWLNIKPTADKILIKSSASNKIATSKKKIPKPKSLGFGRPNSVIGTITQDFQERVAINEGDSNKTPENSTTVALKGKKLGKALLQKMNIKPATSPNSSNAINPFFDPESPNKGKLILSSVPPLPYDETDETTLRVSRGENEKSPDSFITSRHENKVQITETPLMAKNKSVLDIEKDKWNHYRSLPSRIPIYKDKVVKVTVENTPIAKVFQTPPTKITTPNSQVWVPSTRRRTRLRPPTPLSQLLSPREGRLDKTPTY", "UniProt P02666, sequence (whole entry, looked up)": "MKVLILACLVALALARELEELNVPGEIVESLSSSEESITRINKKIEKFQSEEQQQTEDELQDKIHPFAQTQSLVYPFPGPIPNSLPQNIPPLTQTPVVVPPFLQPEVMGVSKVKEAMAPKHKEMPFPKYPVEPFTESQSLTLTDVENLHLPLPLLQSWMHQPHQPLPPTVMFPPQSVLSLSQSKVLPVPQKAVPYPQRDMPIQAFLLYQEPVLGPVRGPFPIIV"}
{"Substance": "CDKN1A fragment (Homo sapiens) (sequence not shown)", "target or system": "CCNA2 173-432 (Homo sapiens, UniProt P20248)", "test": "NMR spectroscopy", "endpoint": "binding", "value": "binds"}
{"Substance": "LIYWAST", "system": "peptide, human polyclonal IgM RF ABR", "conditions": "concentration not given, 5 µg/mL mAb II-481 coated, added: RF at 50% max binding concentration", "endpoint": "inhibition", "value": "4%"}
{"Substance": "B1 (SMAD4 273-552)", "target or system": "SMAD2 186-467 S-to-E phosphomimetic (Homo sapiens, UniProt Q15796)", "test": "SEC", "conditions": "pH 8.0, 4 °C, NaCl 150 mM", "endpoint": "binding", "value": "binds"}
{"Substance": "B2 (VPS21)", "target or system": "BLOC-1 hexamer (Saccharomyces cerevisiae, UniProt P40003)", "test": "pull-down", "conditions": "added: GTPγS", "endpoint": "binding", "value": "binds"}
{"Substance": "B3 (pum 1091-1426)", "target or system": "CNOT1/CNOT2/CNOT3/CNOT10/CNOT11/CNOT7/CNOT6/CNOT9 CCR4-NOT complex 1-2376 (Homo sapiens)", "test": "pull-down", "endpoint": "binding", "value": "binds"}
{"Substance": "B4 (SEC72)", "target or system": "SEC63, PEGylated surface lysines (Saccharomyces cerevisiae, UniProt P14906)", "test": "cryo-EM", "endpoint": "binding", "value": "binds"}
{"Substance": "B5 (NAS6 1-228)", "target or system": "RPT1/RPT2/RPT3/RPT4/RPT5/RPT6/RPN1/RPN2/RPN13/RPN14/HSM3 base, Nas6-free (Saccharomyces cerevisiae)", "test": "pull-down", "conditions": "200 nM, 15 min, 30 °C, eviction assay, added: Nas6 200 nM", "endpoint": "binding", "value": "binds"}
{"Substance": "BIM1 (Saccharomyces cerevisiae, UniProt P40013)", "target or system": "KAR9 A196E/S197E/S332E/S429E/S496E (Saccharomyces cerevisiae, UniProt P32526)", "test": "fluorescence correlation spectroscopy", "conditions": "pH 7.5, NaCl 350 mM, phosphomimetic", "endpoint": "binding", "value": "binds"}
{"Substance": "B6 (UGT1A9)", "target or system": "O=c1c(O)c(-c2ccccc2O)oc2ccccc12", "test": "steady-state kinetics", "conditions": "pH 7.4, 37 °C", "endpoint": "Vmax/Km", "value": "78 µL/min/mg"}
{"Substance": "B7 (LSAMP ectodomain 32-306)", "target or system": "NEGR1 ectodomain 38-313 (Homo sapiens, UniProt Q7Z3B1)", "test": "SPR", "endpoint": "binding", "value": "binds"}
{"Substance": "YWCKGLCK (designed peptide; half N-acetyl, half free N-terminus/C-amide/cyclic disulfide Cys3-Cys7)", "target or system": "RGS4 residues 19-end", "test": "fluorescence imaging of beads", "system": "peptide", "endpoint": "binding", "value": "binds"}
{"Substance": "B8 (apcB)", "target or system": "apcE, phycocyanobilin (Synechocystis sp. PCC 6803, UniProt Q55544)", "test": "cross-linking", "endpoint": "binding", "value": "binds"}
{"Substance": "Ac-LVCKGYCQ-NH2 (designed peptide; disulfide 3-7; SMILES CC(=O)N[C@@H](CC(C)C)C(=O)N[C@H](C(=O)N[C@H]1CSSC[C@@H](C(=O)N[C@@H](CCC(N)=O)C(N)=O)NC(=O)[C@H](Cc2ccc(O)cc2)NC(=O)CNC(=O)[C@H](CCCCN)NC1=O)C(C)C; N-acetyl/C-amide/cyclic disulfide Cys3-Cys7)", "target or system": "RGS4 residues 52-end", "test": "flow cytometry", "system": "peptide", "conditions": "room temperature", "endpoint": "binding", "value": "binds"}
{"Substance": "B9 (POL30)", "target or system": "POL3/POL31/POL32 Pol delta heterotrimer (Saccharomyces cerevisiae)", "test": "single-molecule colocalization", "conditions": "added: ATP and dNTPs", "endpoint": "binding", "value": "binds"}
{"Substance": "Ac-KLCHGYCH-NH2 (designed peptide; disulfide 3-7; SMILES CC(=O)N[C@@H](CCCCN)C(=O)N[C@@H](CC(C)C)C(=O)N[C@H]1CSSC[C@@H](C(=O)N[C@@H](Cc2c[nH]cn2)C(N)=O)NC(=O)[C@H](Cc2ccc(O)cc2)NC(=O)CNC(=O)[C@H](Cc2c[nH]cn2)NC1=O; N-acetyl/C-amide/cyclic disulfide Cys3-Cys7)", "target or system": "RGS4 residues 52-end", "test": "flow cytometry", "system": "peptide", "conditions": "room temperature", "endpoint": "binding", "value": "binds"}
{"Substance": "CSN2 mature (Bos taurus, UniProt P02666)", "target or system": "htrA residues 94-end 94-452 S296A (Synechocystis sp. PCC 6803, UniProt P73354)", "test": "SEC", "endpoint": "binding", "value": "binds"}
{"Substance": "H-LVCKGYCQ-NH2 (designed peptide; disulfide 3-7; SMILES CC(C)C[C@H](N)C(=O)N[C@H](C(=O)N[C@H]1CSSC[C@@H](C(=O)N[C@@H](CCC(N)=O)C(N)=O)NC(=O)[C@H](Cc2ccc(O)cc2)NC(=O)CNC(=O)[C@H](CCCCN)NC1=O)C(C)C; free N-terminus/C-amide/cyclic disulfide Cys3-Cys7)", "target or system": "RGS4 residues 52-end", "test": "flow cytometry", "system": "peptide", "conditions": "room temperature", "endpoint": "binding", "value": "binds"}
{"Substance": "SGVPDRF", "system": "peptide, human polyclonal IgM RF ABR", "conditions": "concentration not given, 5 µg/mL mAb II-481 coated, added: RF at 50% max binding concentration", "endpoint": "inhibition", "value": "62%"}
{"Substance": "KLCHGYCH-NH2 (designed peptide; disulfide 3-7; also: on OBOC bead: half N-acetylated, half free N-terminus; half N-acetyl, half free N-terminus/C-amide/cyclic disulfide Cys3-Cys7)", "target or system": "RGS4 residues 19-end", "test": "fluorescence imaging of beads", "system": "peptide", "endpoint": "binding", "value": "binds"}
{"Substance": "ACAT1 (Homo sapiens, UniProt P24752)", "target or system": "PDP1 GST fusion, pY381 (UniProt Q9P0J1)", "test": "pull-down", "conditions": "phosphorylated partner", "endpoint": "binding", "value": "binds"}
{"note": "Repeated from above:"}
{"Substance": "Ac-LVCKGYCQ-NH2 (designed peptide; disulfide 3-7; SMILES CC(=O)N[C@@H](CC(C)C)C(=O)N[C@H](C(=O)N[C@H]1CSSC[C@@H](C(=O)N[C@@H](CCC(N)=O)C(N)=O)NC(=O)[C@H](Cc2ccc(O)cc2)NC(=O)CNC(=O)[C@H](CCCCN)NC1=O)C(C)C; N-acetyl/C-amide/cyclic disulfide Cys3-Cys7)", "target or system": "RGS4 residues 52-end", "test": "flow cytometry", "system": "peptide", "conditions": "room temperature", "endpoint": "binding", "value": "binds"}
